Assay results collected from several papers.
Each numbered part is a random draw from the data of one study; scales do not carry over between parts. Substitutions count along the parent as printed.

Study 1 — method: DHFR PCA, deep sequencing; sample: yeast; with: (+)-ABA 0.0091 µM; reference: wild-type fitted maximum; direction: higher = stronger binding
Target: ABI1, truncated, D143A, DHFR fusion (Arabidopsis thaliana)
Notes: methotrexate growth selection, single substitutions
Starting sequence: PYL1, truncated, DHFR fusion (Arabidopsis thaliana); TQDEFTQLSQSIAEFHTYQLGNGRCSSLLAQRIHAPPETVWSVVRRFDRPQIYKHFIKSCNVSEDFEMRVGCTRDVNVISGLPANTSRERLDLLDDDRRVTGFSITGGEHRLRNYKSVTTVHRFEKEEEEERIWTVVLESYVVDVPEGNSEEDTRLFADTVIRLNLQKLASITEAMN; partner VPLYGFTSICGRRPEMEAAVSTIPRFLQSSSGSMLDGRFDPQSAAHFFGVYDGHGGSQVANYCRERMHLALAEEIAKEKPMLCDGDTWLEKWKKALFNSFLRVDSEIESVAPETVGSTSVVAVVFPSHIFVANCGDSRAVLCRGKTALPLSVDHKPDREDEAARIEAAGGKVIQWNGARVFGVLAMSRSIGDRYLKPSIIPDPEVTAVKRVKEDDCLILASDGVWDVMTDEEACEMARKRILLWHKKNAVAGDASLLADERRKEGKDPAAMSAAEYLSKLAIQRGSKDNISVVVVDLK
| Variant | relative binding score [%] |
| --- | --- |
| E131V | 28.3 |
| R24K | 48.4 |
| T135D | 4 |
| K116S | 13 |
| S9N | 28.4 |
| D65M | 11.3 |
| E125R | 26.8 |
| K126G | 59.9 |
| E67C | 11 |
| H122S | -4.54 |
| N77L | 26.6 |
| T101E | -1.43 |
| D159R | -5.23 |
| I172T | 3.4 |
| R90E | 4.88 |
| D144A | -1.32 |
| R24L | 4.84 |
| N22K | 53.4 |
| P146H | 3.64 |
| D153P | -1.58 |
| L164Q | 3.67 |
| L8E | 6.98 |
| E64D | 47.1 |
| L93G | -7.07 |
| S117F | -10.6 |

Study 2 — target: CCNE2, cyclin fold, Cln2 fusion (human); method: yeast growth competition, sequencing; sample: yeast; notes: strong parent motif; reference: not given; direction: higher = stronger binding
Starting sequence: PPP1R3F docking peptide (human); VAPRRVLFADEAL; partner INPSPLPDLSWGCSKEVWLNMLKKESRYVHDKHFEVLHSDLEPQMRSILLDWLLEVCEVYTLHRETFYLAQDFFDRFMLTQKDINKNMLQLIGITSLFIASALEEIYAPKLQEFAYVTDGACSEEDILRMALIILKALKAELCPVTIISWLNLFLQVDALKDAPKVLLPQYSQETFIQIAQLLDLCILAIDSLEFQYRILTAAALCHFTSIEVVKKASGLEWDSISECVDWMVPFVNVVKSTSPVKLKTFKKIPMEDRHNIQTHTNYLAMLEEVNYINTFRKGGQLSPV
| Variant | normalised enrichment score |
| --- | --- |
| R5K | 0.304 |
| R5A | 0.562 |
| F8A | -0.0486 |
| V6A | 0.27 |
| R4A | 0.654 |
| P3A | 3.43 |

Study 3 — method: RNA Bind-n-Seq; molecule type: RNA; sample: in vitro; tested at: 1 µM; notes: whole 134-nt RNA, ends assumed; with: 150 mM KCl; reference: input library; direction: higher = stronger binding
Target: Ras GTPase-activating protein-binding protein 1, C-terminal RGG region (G3BP1, Homo sapiens, UniProt Q13283)
Sequence of UniProt Q13283 (whole entry, looked up): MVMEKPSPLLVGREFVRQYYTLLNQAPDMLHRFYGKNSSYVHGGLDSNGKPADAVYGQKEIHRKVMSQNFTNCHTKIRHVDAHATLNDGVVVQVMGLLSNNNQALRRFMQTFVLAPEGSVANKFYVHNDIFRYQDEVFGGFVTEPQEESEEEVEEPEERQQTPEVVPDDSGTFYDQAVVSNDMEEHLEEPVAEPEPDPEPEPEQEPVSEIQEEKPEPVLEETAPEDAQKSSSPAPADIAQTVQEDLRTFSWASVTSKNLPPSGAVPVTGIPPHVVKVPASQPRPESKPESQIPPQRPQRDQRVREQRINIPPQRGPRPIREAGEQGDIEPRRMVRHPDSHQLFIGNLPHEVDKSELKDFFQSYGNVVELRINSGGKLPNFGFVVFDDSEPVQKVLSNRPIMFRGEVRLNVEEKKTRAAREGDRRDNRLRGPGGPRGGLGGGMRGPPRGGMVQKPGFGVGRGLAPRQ
| Oligonucleotide | log2 enrichment |
| --- | --- |
| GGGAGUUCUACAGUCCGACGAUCGUCCUGUGCUACACAUCGUAUGUACCGAAUCGGUUUUUGGUUUUUGGGGUUUUUGGGGAAAGUAUUAUGUUACGCCGUUCGGAUCUGCACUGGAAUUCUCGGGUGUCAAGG | -0.831 |
| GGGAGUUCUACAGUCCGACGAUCGCAGGAAGUAAAAACAAAUGGAAAAACUUCGGAUAGUGGCAGGGGUGGGGGUUGCUAAGGAAAGGGUGGGAUGGGAGUGGGUAAAGAGUUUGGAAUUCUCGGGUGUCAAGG | 2.14 |
| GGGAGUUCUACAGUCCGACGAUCUAACUUUAGAGGAGGAUCUGAUGGAUAUGGCAGUGGACGUGGAUUUGGGGAUGGCUAUAAUGGGUAUGGGGGAGGACCUGGAGGUGGCAAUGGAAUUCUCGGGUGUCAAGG | -0.552 |
| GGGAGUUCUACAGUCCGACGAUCCCUCAAGUCCUGUGCUACACAUCGUAUGUACCGAAUCGGGAGGGAGGAGGGGAAAGUAUUAUGUUACGCCGUUCGGAUCUGCACUUCCAGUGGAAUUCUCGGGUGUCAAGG | 1.17 |
| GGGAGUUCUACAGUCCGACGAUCCAAGUCCUGUGCUACACAUCGUAUGUACCGAAUCGGCCCCGGCCCCGGGCCCCGGAAAGUAUUAUGUUACGCCGUUCGGAUCUGCACUUCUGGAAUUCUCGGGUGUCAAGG | -2.15 |
| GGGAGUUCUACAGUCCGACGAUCUAACUUUAGAGGAGGAUCUGAUGGAUAUGGCAGUGGACGUGGAUUUGGGGAUGGCUAUAAUGGGUAUGGAGGAGGACCUGGAGGUGGUAAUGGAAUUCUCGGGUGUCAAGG | -0.556 |
| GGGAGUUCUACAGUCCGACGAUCAAGUCCUGUGCUACACAUCGUAUGUACCGAAUCGGUUUUUUUGGAAAGGAAAAAGGAAAGUAUUAUGUUACGCCGUUCGGAUCUGCACUUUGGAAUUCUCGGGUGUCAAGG | -2.12 |
| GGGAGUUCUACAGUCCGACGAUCGUCCUGUGCUACACAUCGUAUGUACCGAAUCGGGGAAAAAGGAAAAAGGGAAAAAGGGGAAAGUAUUAUGUUACGCCGUUCGGAUCUGCAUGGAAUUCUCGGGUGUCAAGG | -1.15 |
| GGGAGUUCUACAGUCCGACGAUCCUCAAGUCCUGUGCUACACAUCGUAUGUACCGAAUCGGAAGGGAAGGAAGGGGAAAGUAUUAUGUUACGCCGUUCGGAUCUGCACUUCCAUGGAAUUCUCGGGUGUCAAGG | -0.924 |
| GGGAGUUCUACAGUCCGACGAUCCACAGACAACACGCACCCACACAGACACAGAGGGAAGGGGUUAGGAUGGGGACAGGGUGCACAGCAGGGCGGGGUAGGACCCCAGCCCCUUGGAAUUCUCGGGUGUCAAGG | 0.0713 |

Study 4 — method: RNA Bind-n-Seq; molecule type: RNA; sample: in vitro; tested at: 365 nM; reference: no-protein control; direction: higher = stronger binding
Target: RNA binding protein fox-1 homolog 2, RRM domain, GST-SBP tag (RBFOX2, Homo sapiens, UniProt O43251-10, residues 100-194)
Notes: natural RNA segment, single round, ends assumed
Construct (chain): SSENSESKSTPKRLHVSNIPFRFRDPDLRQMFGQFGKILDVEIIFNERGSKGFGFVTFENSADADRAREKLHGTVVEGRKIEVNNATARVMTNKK
| Oligonucleotide | RBNS enrichment (R) |
| --- | --- |
| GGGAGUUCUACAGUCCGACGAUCCCGGAGGCGGCCUUCCCAUCUGCCUGCCCACCCGGAGCUCUUUCCGCCGGCGCAGGGUCCCAAGCCCACCUCCCGCCCUCAGUCCUGCGGUGUGCGUCUGGGCACGUCCUUGGAAUUCUCGGGUGCCAA | 0.4 |
| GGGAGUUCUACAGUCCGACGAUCCAGUGCUACAAUUAAUGAAGCAAAACUUAAUAUGUAAUCACAAUCUAAAUUAGCAUCAAUACUUUGACAUUCAUUACAUUGGUUUGGGGGAAGAAAAGUAGUUCUGGUAUUGGAAUUCUCGGGUGCCAA | 0.769 |
| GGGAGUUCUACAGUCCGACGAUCCACCUCUUCAACUUCUUCUGUGGCUUCUGUGUUACAUUGUUGCCCUGGUUCUCAUAUAUGCUGUGUAGACAAUGUUCUACAGUUAUGGCAAUAAAGAUAGAUUACAUCGCUGGAAUUCUCGGGUGCCAA | 0.295 |
| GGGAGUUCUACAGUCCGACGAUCCAGGAGCAGACAGAGCAAGAAUUGGCUCCAGGGCUCAAGCCUGCCCUCUGGGCAGCCUGGCGUGGGGACACUUGUUCUGUUCUGUCAUAUCCAAAACAAACUCCAUCCCCUGGAAUUCUCGGGUGCCAA | 0.207 |
| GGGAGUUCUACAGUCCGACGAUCUGAUUCUGUACAGGAGUGCUCCUAAUCGCCACUGCACCCUAAUUGCUGAGUCAUGUGCUGAGCUACUUGUAGUGGUCACUGUACACGUGGGGCUCGGGAGGGAAGAGAGCUGGAAUUCUCGGGUGCCAA | 0.436 |
| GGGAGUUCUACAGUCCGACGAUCGUGGCUUCAGGAUCGGGUGUACUGUUCUCAUAACCUUGGGAGGAGAAAGAGAAAGAGAGCGGCUGCUGUAGGGACAGCUCUCUGCCUCUCCUCUCCUGGCUCUACCAGUAUGGAAUUCUCGGGUGCCAA | 0.451 |
| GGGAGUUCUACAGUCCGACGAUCGAGUCUCACCCUGUUGGCCAGGCUGGAGUGCAGUAAGUGGCACAAUCUCGGCUCACUGCAACCUCCGCCUCCUUGGUUCCAGCAAUUCUUCUGCCUCAGCCUCCCGAGUAUGGAAUUCUCGGGUGCCAA | 0.65 |
| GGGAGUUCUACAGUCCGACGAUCAUAAGAGUUUUCAGAGAUUUCAUAUAUAUUAUAUAUCUUUUACAGAGACUAUUUUAAUCCUUAGCGCAUGGGUCCCGCUUUUGGUGAUAUUUUCACAUUAGGUUGCUGUCUGGAAUUCUCGGGUGCCAA | 1.04 |
| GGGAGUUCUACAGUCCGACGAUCUCUUGUGUGUUGCUUGGACAUUUGCAAUUCAGAAGAUAAGCUAGAGAGGCUCUUACUAGGGCCCUCAUUUCUCCUUUUCUGUAUAAGUAUAAGGUCCAGGCUGGUCCUUAUGGAAUUCUCGGGUGCCAA | 0.272 |
| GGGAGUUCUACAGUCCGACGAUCUGGUAACAGGAGUGAGUGAGCCCCUCAGACCUGCACUCUGGGUGUCUCCUGCUUUCAAAGGUUCUUAAUAGUGAAUGCUUUAAAAUUAAAGUCAUCACGAAAUGGAAGUUUGGAAUUCUCGGGUGCCAA | 0.297 |
| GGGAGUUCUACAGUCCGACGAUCCAUAUAGUUAAAGGUCGUGACAAAAACUAUAACAUAACCUUGGACUUUUUCCACGGGGUCCUUUUAUCACAAAAUUAAACAAUUAUGAAACAUUCUGUCCACAAAGACUAUGGAAUUCUCGGGUGCCAA | 0.42 |
| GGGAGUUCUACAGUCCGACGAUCCCUGGGUUUUGUAUUCUCUGAGCUGUGCAGGUGGGGAGACUGGGCUGAGGGAGCCUGGCCCCAUGGUCAGCCCUAGGGUGGAGAGCCACCAAGAGGGACGCCUGGGGGUGUGGAAUUCUCGGGUGCCAA | 0.65 |
